Published values gathered from unrelated publications.
Protocols differ between the studies behind these lines.
EGFR: Epidermal growth factor receptor (EGFR, Homo sapiens, UniProt P00533)
EGFR del747-752/P753S: Epidermal growth factor receptor (EGFR, Homo sapiens, UniProt P00533, del747-752/P753S)
Nuclear receptor subfamily 2 group C member 2 ligand-binding domain: Nuclear receptor subfamily 2 group C member 2, ligand-binding domain (Homo sapiens, UniProt P49116)
UniProt P49116, sequence (whole entry, looked up): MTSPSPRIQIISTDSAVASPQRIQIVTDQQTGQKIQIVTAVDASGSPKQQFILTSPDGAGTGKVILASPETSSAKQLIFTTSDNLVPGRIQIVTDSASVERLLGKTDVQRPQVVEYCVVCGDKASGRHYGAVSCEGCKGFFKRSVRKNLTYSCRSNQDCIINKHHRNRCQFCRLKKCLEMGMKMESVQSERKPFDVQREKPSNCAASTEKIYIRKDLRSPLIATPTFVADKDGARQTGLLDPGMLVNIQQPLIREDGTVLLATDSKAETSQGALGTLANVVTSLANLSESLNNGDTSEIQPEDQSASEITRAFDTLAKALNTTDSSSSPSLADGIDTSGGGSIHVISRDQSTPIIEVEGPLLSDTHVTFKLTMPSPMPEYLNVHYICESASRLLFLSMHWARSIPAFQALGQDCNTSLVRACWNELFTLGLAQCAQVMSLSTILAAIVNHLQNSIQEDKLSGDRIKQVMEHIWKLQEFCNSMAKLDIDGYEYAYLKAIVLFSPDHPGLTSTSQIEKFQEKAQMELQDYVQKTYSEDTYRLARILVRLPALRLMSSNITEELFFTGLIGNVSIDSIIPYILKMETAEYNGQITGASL
EGFR del746-750: Epidermal growth factor receptor (EGFR, Homo sapiens, UniProt P00533, del746-750)

SMILES	tested on	assay	test system	setting	scale	endpoint	result
COc1ccc(-c2nn(-c3ccc(S(C)(=O)=O)cc3)cc2C=N/N=c2\[nH]c(-c3ccc([N+](=O)[O-])cc3)cs2)cc1	EGFR	kinase activity, inhibitor		0.01 µM		inhibition	27.4%
Cc1cn([C@@H]2O[C@H](CO)[C@@H](O)[C@H]2O)c(=O)nc1N	OCI-Ly1			1 µM, 120 h		viability	98.4%
C[C@@H](c1ccc(-n2cnc3c(N)ncnc32)cc1)N1CCc2nn(C)c(Cc3ccccc3)c2C1=O	Epidermal growth factor receptor (EGFR, Homo sapiens, UniProt P00533, del752-759)	KINOMEscan		0.1 µM	relative to: DMSO control	remaining binding	89%
COc1cc(N2CCN(C)CC2)ccc1Nc1nc(N)n(C(=O)NCc2ccccc2S(=O)(=O)C(C)C)n1	EGFR del747-752/P753S	enzyme activity		10 µM	relative to: control	remaining activity	4.4%
C=CC(=O)N1CCC(C(=O)NCC(=O)N2CCN(c3nc(-c4cnc(N)nc4C(F)F)nc(N4CCOCC4)n3)CC2)CC1	Epidermal growth factor receptor (EGFR, Homo sapiens, UniProt P00533, L861Q)	KINOMEscan		1 µM		remaining binding	93%
CCOC(=O)c1c(CSc2ccccc2)n(C)c2cc(Br)c(O)c(CN(C)C)c12	Nuclear receptor subfamily 2 group C member 2 ligand-binding domain	SPR imaging				Kd	0.0315 nM
C=CC(=O)N1CCC(COCC(=O)N2CCN(c3nc(-c4cnc(N)nc4C(F)F)nc(N4CCOC[C@@H]4C)n3)CC2)CC1	EGFR del747-752/P753S	KINOMEscan		1 µM	relative to: DMSO control	remaining binding	100%
Oc1cc(O)c2cc(O)c(-c3cc(O)c(O)c(O)c3)[o+]c2c1	OCI-Ly1			0.1 µM, 120 h		viability	196%
[2H]c1cc(C)c(NC(=O)c2cnc(Nc3cc(N4CCCCC4)nc(C)n3)s2)c(Cl)c1	EGFR del746-750			0.01 µM		inhibition	< 30%
CC(C)C[C@H](NC(=O)[C@H](CO)NC(=O)[C@H](CO)NC(=O)CNC(=O)[C@@H]1CCCN1C(=O)[C@H](Cc1ccc(O)cc1)NC(=O)[C@H](CC(C)C)NC(=O)[C@H](CO)NC(=O)[C@H](CS)NC(=O)[C@H](CC(C)C)NC(=O)[C@H](CC(C)C)NC(=O)CCCCCNC(=S)Nc1ccc2c(c1)C(=O)OC21c2ccc(O)cc2Oc2cc(O)ccc21)C(=O)O	EGFR	binding, first site, LigandTracer cell binding	A-431	FITC-labelled, model, binding, one to two		kon	137 M⁻¹ s⁻¹
CN(C)CCC(c1ccccc1)c1ccccn1 (centres unmarked)	Nuclear receptor subfamily 2 group C member 2 ligand-binding domain	SPR imaging				Kd	0.441 nM
COc1cc(N2CCN(C)CC2)ccc1Nc1nc(N)n(C(=O)NCc2c(Cl)cccc2Cl)n1	EGFR del746-750	enzyme activity		10 µM	relative to: control	remaining activity	3.4%
O=C(NC1CCC1)c1ccc2nc(-c3cccc(NS(=O)(=O)NCCN4CCCCC4)c3)cn2c1	EGFR del746-750	enzyme activity		10 µM		remaining activity	80%
CCOc1cc(N2CCN(C)CC2)ccc1Nc1nc(N)n(C(=O)NCc2ccccc2S(=O)(=O)C(C)C)n1	Epidermal growth factor receptor (EGFR, Homo sapiens, UniProt P00533, G719C)	enzyme activity		10 µM	relative to: control	remaining activity	0.6%
COc1ccc(-c2nn(-c3ccc(S(C)(=O)=O)cc3)cc2/C=N/N=c2\[nH]c(-c3ccc(Br)cc3)cs2)cc1	EGFR	kinase activity, inhibitor		1 µM		inhibition	70.3%
COc1cc(N2CCN(C)CC2)ccc1Nc1nc(N)n(C(=S)NCc2c(Cl)cccc2Cl)n1	EGFR del747-752/P753S	enzyme activity		10 µM	relative to: control	remaining activity	2.6%
CC(C)Cc1ccc(-c2nn(-c3ccc(S(C)(=O)=O)cc3)cc2/C=N/N=c2\[nH]c(-c3ccc([N+](=O)[O-])cc3)cs2)cc1	Epidermal growth factor receptor (EGFR, Homo sapiens, UniProt P00533, L858R)	kinase activity, inhibitor		0.1 µM		inhibition	47%

Some of these lines once more:
SMILES	tested on	assay	test system	setting	scale	endpoint	result
O=C(NC1CCC1)c1ccc2nc(-c3cccc(NS(=O)(=O)NCCN4CCCCC4)c3)cn2c1	EGFR del746-750	enzyme activity		10 µM		remaining activity	80%
CCOc1cc(N2CCN(C)CC2)ccc1Nc1nc(N)n(C(=O)NCc2ccccc2S(=O)(=O)C(C)C)n1	Epidermal growth factor receptor (EGFR, Homo sapiens, UniProt P00533, G719C)	enzyme activity		10 µM	relative to: control	remaining activity	0.6%
